Published values from different studies.
Numbers after ± are the reported error.

Structure (SMILES)	cell line	assay	conditions	how to read	measurement	value
CC(=O)NC1C(O)OC(CO)C(O)C1OC(C)C(=O)NC(C)C(=O)NC(CCC(=O)O)C(N)=O (stereo not shown)	human PBMCs	–	10 µM, 24 h, with or without LPS	–	TNF-α secretion	increased
CO[C@@H]1[C@@H](O[C@@H]2O[C@H](C)[C@@H](O[C@H]3C[C@@](C)(O)[C@@H](OC(=O)c4ccc(C(C)(C)C)cc4)[C@H](C)O3)[C@H](N(C)C)[C@H]2O)[C@@H](CC=O)C[C@@H](C)[C@@H](O[C@H]2CC[C@H](N(C)C)[C@@H](C)O2)/C=C/C=C/C[C@@H](C)OC(=O)C[C@H]1O	GES-1 and HGC-27	cell growth, CCK-8	72 h	baseline: IC50 GES-1 over HGC-27	selectivity index	1.44
Cc1ccc2oc(-c3c4c(N)n[nH]c(=O)c4nn3-c3ccc(NC(=O)/C=C/CN(C)C)cc3)c(C)c2c1	SNU-16	Western blot	concentration not given	–	FGFR2 phosphorylation	inhibited
O=C1OCC2=C1C(c1cccc(Br)c1)C1=C(N2)C(=O)c2ccccc2C1=O (stereo not shown)	SK-LU-1 cells	annexin V/PI	0.08 µM, 24 h	–	total apoptotic cells	8.04%
O=C(c1ccc2ccccc2c1)c1cn(-c2ccccc2)nc1C1=Nn2c(Cc3nnc4n3N=C(c3nn(-c5ccccc5)cc3C(=O)c3ccc5ccccc5c3)CS4)nnc2SC1	MCF7 cells	RT-PCR, item: Bcl-2	IC50, 48 h	baseline: untreated	mRNA level	0.17 fold
CC(=O)O[C@H]1C2=C(C(=O)C(O)=C(C(C)C)C2=O)[C@@]2(C)CCCC(C)(C)[C@@H]2[C@@H]1O	NCI-H460/R P-gp overexpressing	MTT	72 h	–	GI50	3.1 ± 0.4 µM
C=C(CC)C(=O)c1ccc(OCC(=O)NCCCCNC(=O)COc2ccc(C(=O)C(=C)CC)c(Cl)c2Cl)c(Cl)c1Cl	CoC1/DDP	cell growth, CCK-8	72 h	–	IC10	~0.2 µM
COc1cc(CNC(=O)C[C@H](C)CCC=C(C)C)ccc1OCc1cn(-c2ccccc2Cl)nn1	A549/ATCC	SRB	10 µM, 48 h	–	growth	64.1%
Cc1ccc(NC(=O)c2c(C)oc3ccc(O)c(CN4CCCCCC4)c23)cc1	L-363	annexin V/7-AAD flow cytometry	10 µM, 72 h	–	apoptotic cells	13%
CCN(CC)CC(=O)N1CCN(c2nc(NCc3nc4cc(Cl)c(Cl)cc4[nH]3)c3ncn(CC)c3n2)CC1	MDA-MB-231	western blot	concentration not given, 12 or 24 h	–	ATM and RAD51 protein level	decreased
CC(Cc1ccc(Cl)cc1)=C(c1ccc(Cl)cc1)c1ccc(OCCN(C)C)cc1	A549/ATCC	NCI five-dose screen	non-small-cell lung cancer	–	GI50	4.52 µM
Cc1nn(-c2ccc(S(=O)(=O)N[C@H](CO)CC(C)C)cc2)c2nn3nnnc3nc12	PC-3	DNA damage, alkaline comet	1 µM, 24 h	–	tail DNA	38.8 ± 4.36%
CC/C=C\C/C=C\C/C=C\C/C=C\C/C=C\C/C=C\CCC(=O)Nc1ccn(C2OC(CO)C(O)C2(F)F)c(=O)n1 (stereo not shown)	UACC-62	NCI60 screen	–	–	TGI	12.5 µM
CC1=CC(C)=[N+]2C1=C(CO)c1c(C)cc(C)n1[B-]2(F)F	RPE-1	resazurin	0.1667 h, with: 510 nm light, 10 min	baseline: dark over light IC50	phototoxicity index	20 ± 5
O=C1c2c(O)cc(O)cc2-c2c(-c3ccc(O)cc3)oc3cc(O)cc1c23	MCF7 cells	label-free MS proteomics	10 µM	–	number of proteins downregulated	92
CC1(C)C2CC[C@]3(C)[C@H](C(=O)C=C4[C@@H]5C[C@@](C)(C(=O)N6CCN(C(=O)Cc7ccc(Cl)cc7)CC6)CC[C@]5(C)CC[C@]43C)[C@@]2(C)CC[C@@H]1OC(=O)Cc1ccc(Cl)cc1 (stereo partly shown)	KARPAS-299	cell growth or viability, MTT	2 µg/mL	–	inhibition	0%
CCOc1c(C(C)(C)O)sc2cnc(Nc3ccc(N4CCC(N5CC6(COC6)C5)CC4)cc3OC)nc12	human atrial cardiomyocytes	confocal line scan	1, 3 and 10 µM	baseline: vehicle	Ca spark frequency	decreased
COc1cc(CNC(=O)C[C@H](C)CCC=C(C)C)ccc1OCc1cn(-c2ccc([N+](=O)[O-])cc2)nn1	A549/ATCC	SRB	10 µM, 48 h	–	growth	85.5%
CCN(CC)CC(=O)Nc1cccc(-n2cc(-c3ccc4ccc(-c5cn(-c6cccc(NC(=O)CN(CC)CC)c6)nn5)cc4c3)nn2)c1	RCC4	qRT-PCR, item: HIF-1α	5 x IC50, 2 h	baseline: untreated	mRNA level	3.9%
O=C1CCC(N2C(=O)c3ccc(N4CCC(C(=O)N5CCC(CCN6CCC(CNC(=O)c7cccc(-c8noc(C(F)(F)F)n8)c7)(c7nc(-c8ccccc8)cs7)CC6)CC5)CC4)cc3C2=O)C(=O)N1 (stereo not shown)	DHL6	RNA sequencing	3 µM, 12 h	–	downregulated genes	1390 genes
C=C1C(=O)OC2C1CCC1(C)CC1CCC1(C)OC21 (stereo not shown)	TEX	CellROX Green flow cytometry	100 µM, 30 min	baseline: untreated	ROS level	2.6 fold
COc1ccc(CC2COC(=O)C2Cc2ccc3c(c2)OCO3)cc1OC (mixture of isomers)	A2780cis (cisplatin-resistant)	Western blot, item: cyclin D1	3.25 µM, 48 and 72 h	baseline: 0 h control	protein level	decreased
O=Cc1c(O)ccc2ccccc12	HUVEC	RNA sequencing, item: ULBP1	75 µM, 24 h	baseline: DMSO	log2 fold change	3.51
CN(C)c1cccc2c(S(=O)(=O)NCCCCCC(=O)NO)cccc12	PC-3	propidium iodide flow cytometry	1.54 µM	–	cells in G1 phase	64.3%
COc1cc(CNC(=O)C[C@H](C)CCC=C(C)C)ccc1OCc1cn(-c2cccc(C(F)(F)F)c2)nn1	A549/ATCC	SRB	10 µM, 48 h	–	growth	42.6%

Structure (SMILES)	cell line	assay	conditions	how to read	measurement	value
CCCCCCCCCC[N]1C(=O)c2cccc[n+]2[Ir]1[Cl].Cc1c(C)c(C)[c-](C)c1C	SH-SY5Y	4-hydroxynonenal reduction, HPLC	–	–	turnover number	8
COc1cc(CNC(=O)C[C@H](C)CCC=C(C)C)ccc1OCc1cn(-c2ccccc2)nn1	MCF7 breast cancer cells	SRB	10 µM, 48 h	–	growth percent	80.6%
C(=C/c1ccccc1)/c1ccccc1	MOLT-3	cell proliferation, CellTiter-Glo	24 h, lowest dose with significant inhibition	baseline: vehicle	lowest effective concentration	2 µM
O=C(OCc1cccc(O)c1O)c1ccc(O)c(CO)c1	mouse aortic smooth muscle cells	Amplex red	dose not given, with: angiotensin II 24 h	–	H2O2 production	no inhibition
Cc1ccc(C(C)C)cc1.[Cl-].[Cl][Ru+].[Ru+].c1ccc(-c2cn(CCCCOc3ccccc3-c3nc4ccccc4s3)nn2)nc1	MCF7	annexin V/PI flow cytometry	4 µM, 24 h	–	early apoptotic cells	13.2%
CCNc1cc2c(cc1C)C1(c3cc(C)c(NCC)cc3O2)c2ccccc2C(=O)N1N=Cc1c[c-]c(-c2ccccn2)cc1.Cc1c(C)c(-c2ccc(-c3ccccc3)cc2)[c-](C)c1C.[Cl-].[Ir+3]	A549	confocal microscopy, item: lysosome colocalisation	1×IC50, 1 h, with: LysoTracker Deep Red 500 nM	–	Pearson correlation coefficient	0.64
COc1cc(CNC(=O)C[C@H](C)CCC=C(C)C)ccc1OCc1cn(-c2ccc(Br)cc2)nn1	IGROV-1 ovarian cancer cells	SRB	10 µM, 48 h	–	growth percent	89.9%
CC(C)c1cccc(C(C)C)c1-n1ccn(-c2c(C(C)C)cccc2C(C)C)c1=[Se].[Cl][Au]	LoVo MDR	MTT	–	baseline: LoVo MDR over LoVo	resistance factor	2
CN(C)c1cc2ccccc2c(N)n1	LX-2	qPCR	concentration not given, with: TGF-β1 5 ng/mL for 12 h	–	IFN-γ mRNA level	increased
Cc1nn(C)c(O)c1-c1nc2cc(Cl)c(Cl)cc2[nH]c1=O	TF-1	annexin V flow cytometry	concentration not given, 24 h, treated at IC50	–	apoptotic cells	~30%
CC(C)=CCc1c(-c2cc(O)c(O)cc2O)oc2c(CC=C(C)C)c(O)cc(O)c2c1=O	SAS	cell growth, MTT	–	baseline: IC50 HaCaT over IC50 SAS	selectivity ratio	1.8
COc1cc(CNC(=O)C[C@H](C)CCC=C(C)C)ccc1OCc1cn(-c2cccc(Cl)c2)nn1	A549/ATCC	SRB	10 µM, 48 h	–	growth	81.8%
CCCCCC(=O)O[C@H]1[C@H](C)O[C@@H](O[C@H]2[C@H](N(C)C)[C@@H](O)[C@H](O[C@H]3[C@@H](CC=O)C[C@@H](C)[C@@H](O[C@H]4CC[C@H](N(C)C)[C@@H](C)O4)/C=C/C=C/C[C@@H](C)OC(=O)C[C@@H](O)[C@@H]3OC)O[C@@H]2C)C[C@@]1(C)O	GES-1 and HGC-27	cell growth, CCK-8	72 h	baseline: IC50 GES-1 over HGC-27	selectivity index	7.42
Cc1ccc2nc(-c3ccc(Cl)cc3)c(CN3CCN(c4ccc(F)cc4)CC3)n2c1	CRL8155	cell growth or viability	48 h	–	EC50	> 50 µM
COc1ccc([C@@H]2CC(=O)c3c(O)cc(O[C@@H]4O[C@H](CO[C@@H]5O[C@@H](C)[C@H](O)[C@@H](O)[C@H]5O)[C@@H](O[C@H]5O[C@H](CO)[C@@H](O)[C@H](O)[C@H]5O)[C@H](O)[C@H]4O)cc3O2)cc1O	A549	cell growth or viability, MTS	50 µg/mL, 24 h	–	viability	63.9%
CCN1/C(=C/C=C2\CCCC(/C=C/C3=[N+](CC)c4ccccc4C3(C)C)=C2NCCCCCCCCN2CCC(Nc3nc4ccccc4n3Cc3ccc(F)cc3)CC2)C(C)(C)c2ccccc21	U87	western blot, item: ATF4	3 µM, 24 h	–	protein level	increased
O=S(=O)(CCC(F)(F)F)Nc1ccc(Oc2ncccc2-c2ccnc(N[C@H]3CCCNC3)n2)c2ccccc12	INS1 cells with Dox-inducible IRE1α	RNA-Seq	20 µM, with: 5 ng/mL doxycycline	–	Txnip mRNA level	inhibited
O=C(/C=C(O)/C=C/c1cccs1)/C=C/c1cccs1	EA.hy926	DCFH-DA, normalised to SRB	1 µM	baseline: untreated	intracellular ROS	97.3 ± 11.3%
COc1cc(CNC(=O)C[C@H](C)CCC=C(C)C)ccc1OCc1cn(-c2ccccc2[N+](=O)[O-])nn1	MOLT-4 leukaemia cells	SRB	10 µM, 48 h	–	growth percent	20.7%
FC(F)(F)c1ccnc(-c2cc(C(F)(F)F)ccn2)c1.FC(F)(F)c1ccnc(-c2cc(C(F)(F)F)ccn2)c1.[Cl-].[Cl-].[Ru+2].c1csc(-c2ccc(-c3ccc(-c4ccc(-c5nc6c7cccnc7c7ncccc7c6[nH]5)s4)s3)s2)c1	SK-MEL-28	cell viability	100 J/cm2 light, normoxia, with: visible light 400-700 nm	baseline: dark over light EC50	phototherapeutic index	10000
COc1cc(CNC(=O)C[C@H](C)CCC=C(C)C)ccc1OCc1cn(-c2ccc(Cl)c(Cl)c2)nn1	A549/ATCC	SRB	10 µM, 48 h	–	growth	46.5%
COc1ccc(NC(=O)COc2ccc(/C=C/C(C)=N/O)cc2OC)cc1	SH-SY5Y	flow cytometry	5 µM, with: amyloid beta 10 µM	–	IL-1β expressing cells	45%
CCCCCCCC(=O)O[C@H]1[C@H](C)O[C@@H](O[C@H]2[C@H](N(C)C)[C@@H](O)[C@H](O[C@H]3[C@@H](CC=O)C[C@@H](C)[C@@H](O[C@H]4CC[C@H](N(C)C)[C@@H](C)O4)/C=C/C=C/C[C@@H](C)OC(=O)C[C@@H](O)[C@@H]3OC)O[C@@H]2C)C[C@@]1(C)O	GES-1 and HGC-27	cell growth, CCK-8	72 h	baseline: IC50 GES-1 over HGC-27	selectivity index	3.05
COc1ccc([C@@H]2CC(=O)c3c(O)cc(O[C@@H]4O[C@H](CO[C@@H]5O[C@@H](C)[C@H](O)[C@@H](O)[C@H]5O)[C@@H](O)[C@H](O)[C@H]4O)cc3O2)cc1O	A549	trypan blue exclusion	100 µg/mL, 24 h	–	cell count	10800 ± 438

Excerpt of the above:
Structure (SMILES)	cell line	assay	conditions	how to read	measurement	value
COc1cc(CNC(=O)C[C@H](C)CCC=C(C)C)ccc1OCc1cn(-c2cccc(C(F)(F)F)c2)nn1	A549/ATCC	SRB	10 µM, 48 h	–	growth	42.6%
CCCCCCCCCC[N]1C(=O)c2cccc[n+]2[Ir]1[Cl].Cc1c(C)c(C)[c-](C)c1C	SH-SY5Y	4-hydroxynonenal reduction, HPLC	–	–	turnover number	8
COc1cc(CNC(=O)C[C@H](C)CCC=C(C)C)ccc1OCc1cn(-c2ccccc2)nn1	MCF7 breast cancer cells	SRB	10 µM, 48 h	–	growth percent	80.6%
C(=C/c1ccccc1)/c1ccccc1	MOLT-3	cell proliferation, CellTiter-Glo	24 h, lowest dose with significant inhibition	baseline: vehicle	lowest effective concentration	2 µM
O=C(OCc1cccc(O)c1O)c1ccc(O)c(CO)c1	mouse aortic smooth muscle cells	Amplex red	dose not given, with: angiotensin II 24 h	–	H2O2 production	no inhibition
Cc1ccc(C(C)C)cc1.[Cl-].[Cl][Ru+].[Ru+].c1ccc(-c2cn(CCCCOc3ccccc3-c3nc4ccccc4s3)nn2)nc1	MCF7	annexin V/PI flow cytometry	4 µM, 24 h	–	early apoptotic cells	13.2%
